Results of several laboratories.
Compare with care: the assays were run in different laboratories.
Method: steady-state kinetics
B1: enzyme (Vanderwaltozyma polyspora, UniProt A7TM80); chain MSVLISGASGYIAKHIVRVLLEQNYKVIGTVRSQDKADKLLKQYNNPNLSYEIVPEIANLDAFDDIFKKHGKEIKYVIHAASPVNFGAKDLEKDLVIPAINGTKNMFEAIKKYAPDTVERVVMTASYASIMTPHRQNDPTLTLDEETWNPVTEENAYENVFTAYCASKTFAEKEAWKFVKENSDAVKFKLTTIHPSFVFGPQNFDEDVTKKLNETCEIINGLLHAPFDTKVEKTHFSQFIDVRDVAKTHVLGFQKDELINQRLLLCNGAFSQQDIVNVFNEDFPELKGQFPPEDKDTDLNKGVTGCKIDNEKTKKLLAFEFTPFHKTIHDTVYQILHKEGRV
B2: enzyme (Myxococcus xanthus, UniProt Q1D964); chain MTDLSAKNPKDTEVVMTQLILPPDANNLDAAFGGKVMQWIDICGAVAAQRHCRQVVVTASMDDLHFHAPIKVGWVALLHGRVLAAFRTSMEVGVTVHAENPLTGERHLTTSALLTFVAIDKDGQRVPVPPLLMETDADRMAFQEAQTRRTLRLARQKENQSWLKVMTPIAGA
B3: enzyme C33S (UniProt A0A0P0CH59); chain MRIALFSDIHANLPALEAVLANMETQQLDAIYSLGDLVGYAPWPNEVVAEIRKRRIPTIAGNYDEGVGLWSPNCGCAYKTDTEKDLGQQSIDFTNNVVTEETRKYLRMLPRQLRLTFMDGSKEENKIELLLVHGSPRKINEYLFEDRPEKSFLKMMEEANADLLFFGHTHKPYHRAMPYEHEGQTRYRHAINIGSVGKPKDGDPRTGYVVVELTPESSLTQKDSIKVEFIRVPYDVETAAQAVEASPLPNEFAQMLRTA
B4: spt (Sphingomonas paucimobilis, UniProt Q93UV0); chain TEAAAQPHALPADAPDIAPERDLLSKFDGLIAERQKLLDSGVTDPFAIVMEQVKSPTEAVIRGKDTILLGTYNYMGMTFDPDVIAAGKEALEKFGSGTNGSRMLNGTFHDHMEVEQALRDFYGTTGAIVFSTGYMANLGIISTLAGKGEYVILDADSHASIYDGCQQGNAEIVRFRHNSVEDLDKRLGRLPKEPAKLVVLEGVYSMLGDIAPLKEMVAVAKKHGAMVLVDEAHSMGFFGPNGRGVYEAQGLEGQIDFVVGTFSKSVGTVGGFVVSNHPKFEAVRLACRPYIFTASLPPSVVATATTSIRKLMTAHEKRERLWSNARALHGGLKAMGFRLGTETCDSAIVAVMLEDQEQAAMMWQALLDGGLYVNMARPPATPAGTFLLRCSICAEHTPAQIQTVLGMFQAAGRAVGVIG
B5: UGT76G1 (Stevia rebaudiana, UniProt Q6VAB4); chain MENKTETTVRRRRRIILFPVPFQGHINPILQLANVLYSKGFSITIFHTNFNKPKTSNYPHFTFRFILDNDPQDERISNLPTHGPLAGMRIPIINEHGADELRRELELLMLASEEDEEVSCLITDALWYFAQSVADSLNLRRLVLMTSSLFNFHAHVSLPQFDELGYLDPDDKTRLEEQASGFPMLKVKDIKSAYSNWQILKEILGKMIKQTKASSGVIWNSFKELEESELETVIREIPAPSFLIPLPKHLTASSSSLLDHDRTVFQWLDQQPPSSVLYVSFGSTSEVDEKDFLEIARGLVDSKQSFLWVVRPGFVKGSTWVEPLPDGFLGERGRIVKWVPQQEVLAHGAIGAFWTHSGWNSTLESVCEGVPMIFSDFGLDQPLNARYMSDVLKVGVYLENGWERGEIANAIRRVMVDEEGEYIRQNARVLKQKADVSLMKGGSSYESLESLVSYISSL
B6: enzyme N219A (Arabidopsis thaliana, UniProt Q9LJK1); chain EKCQEWLERVDSVTYSRDFTKDPIFISGSNKDFKSCSVDCVMGFTSDKKPDAAFGLSHQPGTLSIIRSMESAQYYQENNLAQARRKGYDIVMTTSLSSDVPVGYFSWAEYDIMAPVQPKTEKALAAAFISACAARNFRLQALEALMKTNVKIDSYGGCHRNRDGSVEKVEALKHYKFSLAFENTNEEDYVTEKFFQSLVAGSVPVVVGAPNIEEFAPSPDSFLHIKQMDDVKAVAKKMKYLADNPDAYNQTLRWKHEGPSDSFKALIDMAAVHSSCRLCIFVATRIREQEEKSPEFKRRPCKCTRGSETVYHLYVRERGRFDMESIFLKDGNLTLEALESAVLAKFMSLRYEPIWKKERPASLRGDGKLRVHGIYPIGLTQRQALYNFKFEGNSSLSTHIQRNPCPKFEVVFV
B7: ART1 (Homo sapiens, UniProt P52961); chain QSHPITRRDLFSQEIQLDMALASFDDQYAGCAAAMTAALPDLNHTEFQANQVYADSWTLASSQWQERQARWPEWSLSPTRPSPPPLGFRDEHGVALLAYTANSPLHKEFNAAVREAGRSRAHYLHHFSFKTLHFLLTEALQLLGSGQRPPRCHQVFRGVHGLRFRPAGPRATVRLGGFASASLKHVAAQQFGEDTFFGIWTCLGAPIKGYSFFPGEEEVLIPPFETFQVINASRLAQGPARIYLRALGKHSTYNCEYIKDKKCKSGPCHLDNS
B8: PYCR2 R119C (Homo sapiens, UniProt Q96C36); chain MSVGFIGAGQLAYALARGFTAAGILSAHKIIASSPEMNLPTVSALRKMGVNLTRSNKETVKHSDVLFLAVKPHIIPFILDEIGADVQARHIVVSCAAGVTISSVEKKLMAFQPAPKVICCMTNTPVVVQEGATVYATGTHALVEDGQLLEQLMSSVGFCTEVEEDLIDAVTGLSGSGPAYAFMALDALADGGVKMGLPRRLAIQLGAQALLGAAKMLLDSEQHPCQLKDNVCSPGGATIHALHFLESGGFRSLLINAVEASCIRTRELQSMADQEKISPAALKKTLLDRVKLESPTVSTLTPSSPGKLLTRSLALGGKKD
B9: enzyme S252E/S281E/S285E/S287E (Schizosaccharomyces pombe, UniProt P78804); chain MSTPYEPEFQQAYKEIVGSIESSKLFEVHPELKRVLPIISIPERVLEFRVTWEDDKGNCRVNTGYRVQFNSALGPYKGGLRFHPSVNLSILKFLGFEQIFKNALTGLPMGGGKGGSDFDPKGKSDNEIRRFSQAFMRQLFRYIGPQTDVPAGDIGVTGFVVMHMFGEYKRLRNEYSGVVTGKHMLTGGSNIRPEATGYGVVYYVKHMIEHRTKGAETLKGKRVAISGSGNVAQYAALKCIQEGAIVKSISDEKGVLIAKTAEGLVPEEIHEIMALKEKRAEIADEAELCKKHHYIAGARPWTNVGEIDIALPCATQNEVSGEEAAALIKQGCRYVAEGSNMGSSAEAVEVFEKSRASGEGCWLAPGKAANAGGVAVSGLEMAQNAQFSTWTHAEVDAKLAGIMQNIFEQSTDVASKYCDSGSNNIPSLVDGANIAGFLKVATAMQAVGDWW
B10: enzyme (Klebsiella pasteurii, UniProt A0A9Q9S525); chain MSDAKAKITLGGDTAIELDVLKGTLGQDVIDIRSLGSKGVFTFDPGFTSTASCESKITFIDGDEGILLHRGFPIDQLATDSNYLEVCYILLNGEKPTQAQYDEFKTIVTRHTMIHEQITRLFHAFRRDSHPMAVMCGITGALAAFYHDSLDVNNPRHRDIAAFRLLSKMPTMAAMCYKYSIGQPFVYPRNDLSYAGNFLNMMFSTPCEKYEVNPILERAMDRILILHADHEQNASTSTVRTAGSSGANPFACIAAGIASLWGPAHGGANEAALKMLEEISSVEHIPEFVRRAKDKNDSFRLMGFGHRVYKNYDPRATVMRETCHEVLKELGTKDDLLEVAMELEHIALNDPYFIEKKLYPNVDFYSGIILKAMGIPSSMFTVIFAMARTVGWIAHWNEMHSDGMKIARPRQLYTGYEKRDFKNDIAR
B11: SCO6712 S292F/V290N (Streptomyces coelicolor, UniProt Q9XAL8); chain AKGITARTAPAGGEVRHLKMYAEKLADGQMGYGFEKGKASVPGPLIEVNEGDTLHIEFTNTMDVRASLHVHGLDYEISSDGTAMNKSDVEPGGTRTYTWRTHKPGRRDDGTWRPGSAGYWHYHDHVVGTEHGTGGIRNGLYGPVIVRRKGDVLPDATHTIVFNDMTINNRKPHTGPDFEATVGDRVEIVMITHGEYYHTFHMHGHRWADNRTGILTGPDDPSRVIDNKITGPADSFGFQIIAGEGVGAGAWMYHCHNQFHSDMGMVGLFLVKKPDGTIPGYEPHEHGGATAKSGESGEPTGGAAAHEHEH

With `acmB (Sterolibacterium denitrificans, UniProt A9XWD7)` the Km was 4.4 µM (CC(=O)[C@H]1CC[C@H]2[C@@H]3CCC4=CC(=O)CC[C@]4(C)[C@H]3CC[C@]12C; pH 6.5, added: DCPIP 0.1–0.3 mM).
`enzyme (UniProt A0A7S7NT01)` has a Km of 1410 µM (CC(=O)N[C@H]1[C@H](Oc2ccc([N+](=O)[O-])cc2)O[C@H](CO)[C@@H](O[C@@H]2O[C@H](CO)[C@H](O)[C@H](O)[C@H]2O)[C@@H]1O; pH 6, 45 °C).
The Km of `enzyme (Plasmodium falciparum, UniProt C0H484)` is reported as 12 µM (Nc1ncnc2c1ncn2[C@@H]1O[C@H](COP(=O)(O)OP(=O)(O)OP(=O)(O)O)[C@@H](O)[C@H]1O; added: Mn2+).
`B1 (enzyme)` has a Km of 55900 µM (CCO; pH 8, 30 °C, added: NADP+).
`pyrB (Escherichia coli, UniProt P0A786)` has a Km of 28 µM (NC(=O)OP(=O)(O)O).
With `B2 (enzyme)` the Km was 180 µM (CC(=O)SCCNC(=O)CCNC(=O)[C@H](O)C(C)(C)COP(=O)(O)OP(=O)(O)OC[C@H]1O[C@@H](n2cnc3c(N)ncnc32)[C@H](O)[C@@H]1OP(=O)(O)O; pH 8, 25 °C).
`B3 (enzyme C33S)` gave a Km of 13700 µM (O=[N+]([O-])c1ccc(OP(=O)(O)O)cc1; pH 7, 37 °C, added: Ni2+ 0.25 mM).
`enzyme (Pseudomonas aeruginosa, UniProt Q9HTP2)` gave a Km of 200 µM (N=C(N)NCCCC=O; pH 8, 30 °C).
With `B4 (spt)` the Km was 250 µM (CCCCCCCCCCCC(=O)SCCNC(=O)CCNC(=O)[C@H](O)C(C)(C)COP(=O)(O)OP(=O)(O)OC[C@H]1O[C@@H](n2cnc3c(N)ncnc32)[C@H](O)[C@@H]1OP(=O)(O)O; added: PLP).
With `B5 (UGT76G1)` the Km was 123 µM (C=C1C[C@@]23CC[C@H]4[C@@](C)(CCC[C@@]4(C)C(=O)O[C@@H]4O[C@H](CO)[C@@H](O)[C@H](O)[C@H]4O)[C@@H]2CC[C@]1(O[C@@H]1O[C@H](CO)[C@@H](O)[C@H](O)[C@H]1O)C3; pH 7.25, 40 °C).
With `B6 (enzyme N219A)` the Km was 330 µM (C[C@@H]1O[C@H](OP(=O)(O)OP(=O)(O)OC[C@H]2O[C@@H](n3cnc4c(=O)[nH]c(N)nc43)[C@H](O)[C@@H]2O)[C@@H](O)[C@H](O)[C@@H]1O; pH 6.5, 30 °C).
`RPT3 (Arabidopsis thaliana, UniProt Q9FMF5)` gave a Km of 14300 µM (Nc1nc2c(ncn2[C@@H]2O[C@H](COP(=O)(O)OP(=O)(O)OP(=O)(O)O)[C@@H](O)[C@H]2O)c(=O)[nH]1; pH 7.5, 30 °C).
`B7 (ART1)` has a Km of 6300 µM (CC(=O)N[C@@H](CCCNC(=N)N)C(=O)O; pH 7.5, 25 °C, HEPES 50 mM, added: saturating NAD+).
`acs (Salmonella enterica, UniProt Q8ZKF6)` gave a Km of 311 µM (CCC(=O)O; pH 7, 30 °C, apparent).
For `B8 (PYCR2 R119C)`, the Km was 317 µM (O=C(O)[C@@H]1CCC=N1; pH 7.5, 37 °C, apparent, added: NADH 500 µM).
The Km of `B9 (enzyme S252E/S281E/S285E/S287E)` is reported as 2100 µM (NC(=O)c1ccc[n+]([C@@H]2O[C@H](COP(=O)(O)OP(=O)(O)OC[C@H]3O[C@@H](n4cnc5c(N)ncnc54)[C@H](O)[C@@H]3O)[C@@H](O)[C@H]2O)c1; pH 7, 30 °C, apparent).
`gdh N192L (Bacillus subtilis)` gave a Km of 1200 µM (NC(=O)c1ccc[n+]([C@@H]2O[C@H](COP(=O)(O)OP(=O)(O)OC[C@H]3O[C@@H](n4cnc5c(N)ncnc54)[C@H](O)[C@@H]3O)[C@@H](O)[C@H]2O)c1; pH 7, 40 °C).
For `enzyme K46A (Homo sapiens, UniProt Q08623)`, the Km was 66 µM (O=c1[nH]cc([C@@H]2O[C@H](COP(=O)(O)O)[C@@H](O)[C@H]2O)c(=O)[nH]1; pH 7, 25 °C).
With `B10 (enzyme)` the Km was 89 µM (O=C(O)CC(=O)C(=O)O; pH 7.5, 30 °C, apparent).
`B11 (SCO6712 S292F/V290N)` gave a Km of 830 µM (CCn1c(=NN=c2sc3cc(S(=O)(=O)O)ccc3n2CC)sc2cc(S(=O)(=O)O)ccc21; pH 7, 37 °C, NaCl 150 mM, added: O2 cosubstrate).

Repeated from above:
The Km of `enzyme (Plasmodium falciparum, UniProt C0H484)` is reported as 12 µM (Nc1ncnc2c1ncn2[C@@H]1O[C@H](COP(=O)(O)OP(=O)(O)OP(=O)(O)O)[C@@H](O)[C@H]1O; added: Mn2+).
